Measurements from different studies.
Parts stem from different laboratories: compare values within a part only. Positions count from the first letter of the parent shown.

Sample 1 — method: competition protein-binding microarray; form: double-stranded DNA, one strand shown; sample: in vitro; tested at: 2 µM; with: Pho4 competitor, 0.05 µM; direction: higher = stronger binding; endpoint: fluorescence intensity; shared flanks, not repeated: … GTCTTGATTCGCTTGACGCTGCTG
Target: Centromere-binding protein 1, full length, His-tagged (CBF1, Saccharomyces cerevisiae, UniProt P17106, residues 1-351)
Sequence of UniProt P17106 (whole entry, looked up): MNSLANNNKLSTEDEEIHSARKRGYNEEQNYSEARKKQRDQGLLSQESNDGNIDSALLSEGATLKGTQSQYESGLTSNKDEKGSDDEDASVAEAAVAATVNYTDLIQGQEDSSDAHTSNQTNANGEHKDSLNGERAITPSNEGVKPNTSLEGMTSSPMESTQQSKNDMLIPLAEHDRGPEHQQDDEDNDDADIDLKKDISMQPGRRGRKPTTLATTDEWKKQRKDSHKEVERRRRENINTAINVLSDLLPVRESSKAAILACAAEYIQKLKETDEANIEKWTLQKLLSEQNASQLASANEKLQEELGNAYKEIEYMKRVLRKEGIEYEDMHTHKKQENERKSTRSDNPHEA
Setting: whole 60-bp probe, lowest competitor level
GGTGCGCCATTATCGGTTGTGATGAACTACTGGTTG: 77.2 a.u.
AGCTACGGAAACCGTCACACTTTTTTTCTGCAAGAA: 95.4 a.u.
CGATTTCAGAATCACCACGGGATTGCCAACCCAACA: 151 a.u.
AAAGCGGTAATTTGGTGTGTGGGTGCAGATATCTAT: 89.7 a.u.
CGTCCTAGTGATTGCCCTGTGGGTGCCATGAGGAAG: 74.7 a.u.
AAATTACTAAGTTGTCACGCCACTTACCCCGTATGA: 331 a.u.
GAAAAAAGAAATGGACACGTGTAGGTCAAGGCATTA: 1240 a.u.
AAAAAAAAAACGAGTCACGTGCAAACAGTACCCCTT: 13800 a.u.

Sample 2 — method: EMSA with sequencing; form: double-stranded DNA, one strand shown; sample: in vitro; tested at: 10 and 20 nM; baseline: negative control set to 0; direction: higher = stronger binding; endpoint: normalised bound fraction
Target: Hepatocyte nuclear factor 3-alpha (Foxa1, Mus musculus, UniProt P35582, residues 1-468, full length assumed)
Sequence of UniProt P35582 (whole entry, looked up): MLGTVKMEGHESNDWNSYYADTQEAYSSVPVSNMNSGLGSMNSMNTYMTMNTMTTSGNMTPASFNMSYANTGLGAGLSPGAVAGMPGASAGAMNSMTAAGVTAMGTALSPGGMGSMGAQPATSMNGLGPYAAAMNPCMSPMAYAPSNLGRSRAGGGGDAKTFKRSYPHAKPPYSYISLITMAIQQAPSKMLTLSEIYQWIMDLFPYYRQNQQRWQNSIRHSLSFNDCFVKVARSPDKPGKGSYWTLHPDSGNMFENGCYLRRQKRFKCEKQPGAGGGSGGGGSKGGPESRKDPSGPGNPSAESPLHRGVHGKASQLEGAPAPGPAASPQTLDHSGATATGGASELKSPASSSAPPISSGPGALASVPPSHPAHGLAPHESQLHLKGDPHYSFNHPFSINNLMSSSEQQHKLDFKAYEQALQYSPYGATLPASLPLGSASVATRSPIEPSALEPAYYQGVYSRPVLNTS
Setting: whole designed probe, mean of two concentrations, ends assumed
Shared flanks, not repeated: GTGAGCGGTGCCCATTGATGGGGAAC … TTTCACTGGGATCGTGGGGAC
ACTCTCTCACGCTCACATGCACCTTCAGTTTTTCCCTTGCTGTCCCCCCATATGGGAGGAAGAGAAGATGTCTCCAGAAGTGTGAGCAGAGTAAGTAATCTTGGAGAGTTTGTGATGCTTTGGTGACAATTACCTCTCCTTTCTGCTTCTGGCTGCTGTGGTTCCAGATGGTGGAAACGTTCCGTCCGATTCT: -0.0919 ratio
TTGCATTTTCTAAACAAAATTTTAAAAAGATATCAAGAGTACATACAGGTCAAAAGTATTTGAGCTAAGAATGCCAAAGTCCTTACTTCCCTAGATTACTTAAGCTATAGCTTAGACACTTGGTATTTATCGATATTTTAAAGTAATCGACCAGGATTTTACATATCATATTCCTTAAAATAAAGATGTATGG: -0.00457 ratio
ATCTTCCCCCTCTTCCTTGCCCCACCAGCTCACCTTCCCGGGTCAAAGTAAACAAGTGTTTACTTTGAAGCCGGCATTCGTTAACCCTCTTCTGGCGCAAACTGCACATTGGTCTGGATCTAACATGGTCCTTTGGCGACGCCAGGCTCCGGGAGAGCAAAGCACCGTGTCAGGGCCATGATCCGGGGTGGCC: 0.424 ratio
CATTAGAGTCAAAGTTGTTAAGGGGAGCTAGTCATAGCTACCACGTGGCCAGGCATGTGGAACCAGACACCAGGCACACATCATGTAACATCATATTTACTTTAAATAATGCTGACATGAATCATCATAGTGACACACTACTTGAGATATATAGAATAACATTATTACCCAGTAAGTATGTGAACATTCCGAT: 0.328 ratio
CTGCAACCATATTTTGAAGGCTATGAGCCTTTCCTTTTTCCTCAACACTGTATCCCCTTCCTGGCAATGTGCCTGGCACAGAAGAAATGCTCAGTAATTTTTGGCTGAACAAACAGATGAATGTCTATAGCCCACTTTGCTGGGAGAAGTGGAAGGAGGAGAGATTCCATTGCATATTAGAATTCTGTGTCTT: 0.225 ratio

Sample 3 — method: Spec-seq; form: double-stranded DNA, one strand shown; sample: in vitro; tested at: not given; setting: whole probe, mean of replicates; baseline: not given; direction: lower = stronger binding; endpoint: relative binding energy; shared flanks, not repeated: GAGTCGTCTCGTCAGCAC … CCGTAGAGCACTCAGGTC
Target: Transcription factor SOX-2, HMG box (Sox2, Mus musculus, UniProt P48432, residues 41-119)
Sequence of UniProt P48432 (41-119, looked up): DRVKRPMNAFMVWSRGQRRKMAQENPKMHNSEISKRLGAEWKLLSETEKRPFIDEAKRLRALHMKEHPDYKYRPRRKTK
CATCAAG: 0.23 ln ratio
TACTGTT: -0.998 ln ratio
CATGTAT: 0.0398 ln ratio
CATCACT: 0.613 ln ratio
ACTCGTT: 0.446 ln ratio
GCGCGTT: 1.34 ln ratio
CATAAGA: -0.204 ln ratio
AAGGGTT: 0.0301 ln ratio

Sample 4 — target: CCNA1, cyclin fold, Cln2 fusion (human); method: yeast growth competition, sequencing; sample: yeast; setting: strong parent motif; baseline: not given; direction: higher = stronger binding; endpoint: normalised enrichment score
Parent: viral docking peptide; TSVRRALFTGGSD; partner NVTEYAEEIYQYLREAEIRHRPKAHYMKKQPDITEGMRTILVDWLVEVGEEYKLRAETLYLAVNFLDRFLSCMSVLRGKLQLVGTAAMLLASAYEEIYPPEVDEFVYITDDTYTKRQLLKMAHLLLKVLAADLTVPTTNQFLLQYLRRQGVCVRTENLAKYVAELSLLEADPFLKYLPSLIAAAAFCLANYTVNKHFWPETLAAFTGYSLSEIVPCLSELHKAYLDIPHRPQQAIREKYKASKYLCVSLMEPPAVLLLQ
A6W: -0.532
T9F: 0.745
S2E: 0.974
T9S: 0.836
L7Y: 0.409
A6T: 0.33
L7A: 0.103
F8S: 0.498
R5K F8L: 0.033
R4Y: 0.357
R5A: 0.279
G10Y: 0.931
R5A L7A: 0.118
G11V: 1.3
S12K: 0.189
S12T: 0.901
R4V: -0.035
S2D: 0.813
R5W: -0.175

Mixed results
HNRNPA1L3 (Homo sapiens, UniProt A0A2R8Y4L2)
interaction screen (HNRNPA2B1 (Homo sapiens, UniProt P22626); cross-linking MS; hits only): cross-linked

A few entries again (sample 3):
CATCACT: 0.613 ln ratio
ACTCGTT: 0.446 ln ratio
GCGCGTT: 1.34 ln ratio
CATAAGA: -0.204 ln ratio
AAGGGTT: 0.0301 ln ratio
